Experimental data gathered from unrelated publications.
Every numbered part comes from another study and shows a few of its results, in no order. Changes are numbered by the printed parent chain.

Set 1
Target: Interferon regulatory factor 3, full length, phosphomimetic (IRF3, Homo sapiens, UniProt Q14653, residues 1-427, S386D/S396D/S398D/S402D/T404D/S405D)
UniProt Q14653, sequence (whole entry, unmodified, looked up): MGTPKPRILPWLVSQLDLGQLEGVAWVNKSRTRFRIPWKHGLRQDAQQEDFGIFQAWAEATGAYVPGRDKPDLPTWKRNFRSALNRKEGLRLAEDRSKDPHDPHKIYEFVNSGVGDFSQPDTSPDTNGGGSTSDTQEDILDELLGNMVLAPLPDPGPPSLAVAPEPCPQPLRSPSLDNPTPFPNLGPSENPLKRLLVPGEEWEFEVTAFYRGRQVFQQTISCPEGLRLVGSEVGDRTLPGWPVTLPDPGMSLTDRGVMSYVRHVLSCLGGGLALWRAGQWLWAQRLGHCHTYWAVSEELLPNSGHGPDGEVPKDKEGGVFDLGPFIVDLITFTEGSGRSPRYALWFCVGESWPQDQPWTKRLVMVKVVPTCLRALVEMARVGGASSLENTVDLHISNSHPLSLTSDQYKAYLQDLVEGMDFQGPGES
Method: protein-binding microarray
Molecule type: double-stranded DNA, one strand shown
Matrix: in vitro
Tested at: 2540 nM top
Setting: 60-bp whole probe
With: salmon DNA 0.4 mg/ml
Baseline: random background probes
Direction: higher = stronger binding
All sequences stand within: GCCTAGCAC … GTCTTGATTCGCTTGACGCTGCTG
Under “fitted relative affinity”, `TCTCCTCCCCCTCTGCCACCGTGCTAG` is recorded as 0.663 z-score.
For `TCACTTTTCCATTTTGTACTGTGCTAG`, “fitted relative affinity” read 3.65 z-score.
Under “fitted relative affinity”, `TCATTTCTCTTTCACTAACTGTGCTAG` is recorded as 3.78 z-score.
`TTACGACTGGACACTGGGTTAGTGCTA` — result for “fitted relative affinity”: -0.733 z-score.
For `CTAGAACTGGGGTTTCGATTAGTGCTA`, “fitted relative affinity” read 1.55 z-score.
Under “fitted relative affinity”, `GACGGTCTACTTCTCCTGACGTGCTAG` is recorded as 0.67 z-score.
Under “fitted relative affinity”, `TTAGATTTCGGGTAGCGATTAGTGCTA` is recorded as 0.682 z-score.
`CCTCCCTCTCCCGGAGTTCCGTGCTAG`: “fitted relative affinity” 0.858 z-score.
`CCTCCTTACTTTATGTAGGAGTGCTAG` — result for “fitted relative affinity”: 1.46 z-score.
`GACGATATCAGTCTCGCGACGTGCTAG` — result for “fitted relative affinity”: 1.07 z-score.
`GACGATCTCAGTTACGAGACGTGCTAG`: “fitted relative affinity” 0.649 z-score.
`TTAGGACTGCTCTTCCTTTAGTGCTAG` — result for “fitted relative affinity”: -0.301 z-score.
For `CTAGATTTCGGGACTGGATTAGTGCTA`, “fitted relative affinity” read 1.57 z-score.
`GGCGGACTGCTTATCCTGACGTGCTAG`: “fitted relative affinity” -0.484 z-score.
`AACATACTGATTTCCACTTTGTGCTAG` — result for “fitted relative affinity”: 1.43 z-score.
`TAGATCGTCCCTTTGAGAGGGTGCTAG` — result for “fitted relative affinity”: 0.386 z-score.
For `TCAATCATTGTTTTCAGACTGTGCTAG`, “fitted relative affinity” read 0.655 z-score.
`TCATATACCACTCTTGCACTGTGCTAG` — result for “fitted relative affinity”: 0.73 z-score.
`TTAGAACTGGGGTATCTATTAGTGCTA` — result for “fitted relative affinity”: -0.392 z-score.

Set 2
Target: ABI1, truncated, D143A, DHFR fusion (Arabidopsis thaliana)
Method: DHFR PCA, deep sequencing
Matrix: yeast
Setting: methotrexate growth selection, single substitutions
With: (+)-ABA 0 µM
Baseline: wild-type fitted maximum
Direction: higher = stronger binding
Parent: PYL1, truncated, DHFR fusion (Arabidopsis thaliana); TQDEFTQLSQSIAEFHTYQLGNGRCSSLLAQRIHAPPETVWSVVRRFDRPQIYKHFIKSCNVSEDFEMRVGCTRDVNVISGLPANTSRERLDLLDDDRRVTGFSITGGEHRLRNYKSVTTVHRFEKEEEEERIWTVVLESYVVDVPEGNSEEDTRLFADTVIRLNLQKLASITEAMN
`V142C`: “relative binding score” 18.9%.
Under “relative binding score”, `V136Y` is recorded as -5.04%.
`S59H` — result for “relative binding score”: 4.29%.
Under “relative binding score”, `C25P` is recorded as 5.08%.
For `C25G`, “relative binding score” read 1.38%.
`G81K` — result for “relative binding score”: -5.49%.
Under “relative binding score”, `W41H` is recorded as 0.438%.
`V43N` — result for “relative binding score”: -4.42%.
Under “relative binding score”, `W134S` is recorded as 35.2%.
`V40A` — result for “relative binding score”: -4.7%.
For `W134T`, “relative binding score” read 37.8%.
Under “relative binding score”, `D153C` is recorded as -0.093%.
For `D159P`, “relative binding score” read -12.6%.
`R46D` — result for “relative binding score”: -0.259%.
Under “relative binding score”, `I162F` is recorded as -8.28%.
`R90T`: “relative binding score” 0.647%.

Set 3
Target: RNA binding protein fox-1 homolog 2, RRM domain, GST-SBP tag (RBFOX2, Homo sapiens, UniProt O43251-10, residues 100-194)
Method: RNA Bind-n-Seq
Molecule type: RNA
Matrix: in vitro
Tested at: 365 nM
Setting: natural RNA segment, single round, ends assumed
Baseline: no-protein control
Direction: higher = stronger binding
Target sequence (chain): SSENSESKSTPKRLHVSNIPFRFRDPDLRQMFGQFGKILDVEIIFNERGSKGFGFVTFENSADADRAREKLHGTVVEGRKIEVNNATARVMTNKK
For `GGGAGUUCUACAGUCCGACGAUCCUCCAGUGAAAAUAGGUUGAAAGCCUGUUUUGAUCCAGUGUUUUCUCCCAAAGAACUCUACGUUAAACAUACACCAGUUUUCUUUUAUGACCUGGAGUUAGGAGUGAGUUUGGAAUUCUCGGGUGCCAA`, “RBNS enrichment (R)” read 0.317.
`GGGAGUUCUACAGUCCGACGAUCUUGGAAACUGCUUUAUGAAGAAACUGCUUUAUGAAAUAAGCAAAAUUCUCAAGUGCACAGAUACUAGCAGUUAUGACAGUAAUACAGCGUCUUCUGUGACCCUCACUACCUGGAAUUCUCGGGUGCCAA`: “RBNS enrichment (R)” 0.38.
`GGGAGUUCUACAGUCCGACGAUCUCCAGUGCAAAAGGCCUAGACACUCCCAGUAGCCCAGCCUCUCUGGUCAUCUCUCCGUUCACACCCGAGGCUACACCUGAGGCUGAUUUCCUAAGGCUCCCUCCCAGGCAUGGAAUUCUCGGGUGCCAA`: “RBNS enrichment (R)” 0.939.
`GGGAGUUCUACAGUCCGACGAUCCUUUAGUAUGCCACACUGAAAUGAAUAAGAAGUCUUCUGAAACUGGGAACUUCAUAACAUUGAAGGCAGAAGAUUCUGCUAAGGAAAAAAGCAGGCAGGAAAGAAAAUGUUGGAAUUCUCGGGUGCCAA` — result for “RBNS enrichment (R)”: 0.848.
For `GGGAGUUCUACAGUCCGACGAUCAAUGAACUUUGAUAAAAUAGAAAUAAUCUACAUUGGCCUUUGUGAAAUCUGGGGAAGAGCUUUAGGAUUCUAGUAGAUGGAUACUGAAUACUCAGGCCCACUUAAAUUAUUGGAAUUCUCGGGUGCCAA`, “RBNS enrichment (R)” read 0.561.
Under “RBNS enrichment (R)”, `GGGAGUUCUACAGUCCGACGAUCCUAGAAAACACACUUCCUGCACCAACACCAAUACCCUUUCAAAAGAGUUGUCUGCAACAUUUUUGUUUUCUUUUUUAAUGUCCAAAAGUGGGGGAAAGUGCUAUUUCCUAUGGAAUUCUCGGGUGCCAA` is recorded as 0.482.
`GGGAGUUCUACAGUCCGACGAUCCAAUUAUGCACCAUCUAUUUUUGUACUCUUACUCAUGAUCCAUUUAAAAGUCUACUCAGCUCUAGAUUAGAUACCAGAAGACCCUCUAAGUAACUGAUAACUGAGAUUCGUGGAAUUCUCGGGUGCCAA`: “RBNS enrichment (R)” 0.668.
Under “RBNS enrichment (R)”, `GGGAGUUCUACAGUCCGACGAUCAACUCACCUGUCAUGCUGUUCCCAGGAGGGACAGCUUGGUAGGAACUUUCUGGGGUUUGACUGUUACACUAGACAUGGAUUUCUAAGCUUUAAGUGUGGUUGGUUUAGGAUGGAAUUCUCGGGUGCCAA` is recorded as 0.436.

Set 4
Target: Histone acetyltransferase KAT6A, winged helix 1, GST fusion (KAT6A, Homo sapiens, UniProt Q92794, residues 1-85)
Method: protein binding microarray
Molecule type: double-stranded DNA, one strand shown
Matrix: in vitro
Tested at: not given
Setting: 8-mer, flanks averaged, mean of 2 arrays, mostly near background
Baseline: not given
Direction: higher = stronger binding
Target sequence (chain): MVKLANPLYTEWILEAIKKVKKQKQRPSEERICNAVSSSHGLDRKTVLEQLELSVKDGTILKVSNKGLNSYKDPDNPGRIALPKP
With `CACGTGTC` the E-score was -0.202.
With `CCGGTCGC` the E-score was 0.297.
With `CAATAGAG` the E-score was -0.184.
The E-score of `CTCGCGCC` is reported as 0.328.
`AAGTCTAA` gave an E-score of -0.107.
`ACTCGGGC` gave an E-score of 0.142.
The E-score of `ATATTAAC` is reported as -0.0329.
For `AGCCTTCC`, the E-score was -0.0363.
`CGGGTGCA` has an E-score of 0.0709.
With `AGGGGACG` the E-score was -0.0902.
`ATCTATGC` gave an E-score of -0.0671.
With `AGCTAAAA` the E-score was -0.117.
With `AAGGGCAG` the E-score was -0.0997.
`GGGACCGA` has an E-score of 0.108.
`GGTCCTCA` gave an E-score of 0.0185.
For `GATGCCCC`, the E-score was 0.006.
`ACACCGAG` gave an E-score of 0.0806.
`AACGCGAA` gave an E-score of 0.0442.
With `CGGTTGGA` the E-score was 0.0253.
With `CGCCTGAG` the E-score was 0.135.
`CCTAATAA` has an E-score of -0.0999.
The E-score of `GATTCGAC` is reported as -0.243.

Excerpt of the above (set 4):
With `AGGGGACG` the E-score was -0.0902.
`ATCTATGC` gave an E-score of -0.0671.
With `AGCTAAAA` the E-score was -0.117.
With `AAGGGCAG` the E-score was -0.0997.
`GGGACCGA` has an E-score of 0.108.
`GGTCCTCA` gave an E-score of 0.0185.
For `GATGCCCC`, the E-score was 0.006.
